{"data": "Assay results pooled from the literature", "note": "Numbers after ± are the reported error."}
{"Structure (SMILES)": "COc1ccc(C2=Nn3c(NN=C4C(=O)N(Cc5ccccc5)c5ccc(Cl)cc54)nnc3SC2)cc1", "cell line": "UACC-257", "assay": "cell growth or viability, SRB", "conditions": "10 µM", "quantity": "inhibition", "result": "13%"}
{"Structure (SMILES)": "CCN(CC)C1CCN(Cc2cc(C#CCNc3ccccc3)cc(I)c2O)CC1", "cell line": "NUGC-3 p53 Y220C", "assay": "caspase 3/7 apoptosis", "conditions": "6 h", "quantity": "onset concentration", "result": "50 µM"}
{"Structure (SMILES)": "COc1cc(CNC(=O)C[C@H](C)CCC=C(C)C)ccc1OCc1cn(-c2ccc([N+](=O)[O-])cc2)nn1", "cell line": "NCI-H322M", "assay": "SRB", "conditions": "10 µM, 48 h", "quantity": "growth percent", "result": "92.3%"}
{"Structure (SMILES)": "CC(=O)OC[C@H]1O[C@@H](Sc2sc(C(=O)c3ccc(C)cc3)c(N)c2-c2nc3ccccc3s2)[C@H](OC(C)=O)[C@@H](OC(C)=O)[C@H]1OC(C)=O", "cell line": "NCI-H322M", "assay": "SRB", "conditions": "10 µM, 48 h", "scale": "reference: untreated", "quantity": "growth", "result": "92%"}
{"Structure (SMILES)": "CC(=C(c1ccc(O)cc1)c1ccc(Cl)cc1)c1ccc(Cl)cc1", "cell line": "Ishikawa", "assay": "estrogenic activity, agonist", "conditions": "100 nM, 72 h, unit not given", "scale": "reference: DMSO", "quantity": "alkaline phosphatase activity", "result": "3.91 ± 1.4"}
{"Structure (SMILES)": "COc1ccc(C2=NN(C3=NC(=O)C(=Cc4ccc(O)cc4)S3)C(c3ccc(F)cc3)C2)cc1 (centres unmarked)", "cell line": "T47D", "assay": "PI flow cytometry", "conditions": "concentration not given, 24 h", "quantity": "cells in %S phase", "result": "30.7%"}
{"Structure (SMILES)": "COc1cc(CNC(=O)C[C@H](C)CCC=C(C)C)ccc1OCc1cn(-c2cccc(Cl)c2)nn1", "cell line": "KM12", "assay": "SRB", "conditions": "10 µM, 48 h", "quantity": "growth percent", "result": "94.3%"}
{"Structure (SMILES)": "O=C(/C=C/c1ccc2ccccc2c1)NO", "cell line": "SK-N-BE(2)-C", "assay": "flow cytometry", "conditions": "5.0 µM, unit not given", "scale": "reference: control", "quantity": "LysoTracker signal", "result": "1.7 ± 0.04"}
{"Structure (SMILES)": "CC(=O)O[C@H]1C(=O)[C@]2(C)[C@@H](OC(=O)[C@H](N)CSC3CC(=O)N(CCC(=O)Nc4ccc(-c5ccc(/N=N/c6ccc7c(S(=O)(=O)O)cc(S(=O)(=O)O)c(N)c7c6O)c(C)c5)cc4C)C3=O)C[C@H]3OC[C@@]3(OC(C)=O)[C@H]2[C@H](OC(=O)c2ccccc2)[C@]2(O)C[C@H](OC(=O)[C@H](O)[C@@H](NC(=O)c3ccccc3)c3ccccc3)C(C)=C1C2(C)C (some centres unmarked)", "cell line": "OVCAR-3", "assay": "annexin V/PI flow cytometry", "conditions": "concentration not given, 24 h", "quantity": "early apoptotic cells", "result": "31.5%"}
{"Structure (SMILES)": "CC(C)(C)c1nc(-c2cccc(NS(=O)(=O)c3c(F)cccc3F)c2F)c(-c2ccnc(N)n2)s1.Cc1[nH]c2ccccc2c1CCNCc1ccc(/C=C/C(=O)NO)cc1", "cell line": "C13", "assay": "flow cytometry", "conditions": "concentration not given, 48 h, concentration about IC50", "quantity": "cells in G2/M phase", "result": "3.09%"}
{"Structure (SMILES)": "N=C(N/N=C/c1cc2ccccc2c2ccccc12)N/N=C/c1cc2ccccc2c2ccccc12", "cell line": "PANC-1", "assay": "crystal violet", "conditions": "72 h", "scale": "reference: IC50 IMR-90 over IC50 PANC-1", "quantity": "selectivity ratio", "result": 1.3}
{"Structure (SMILES)": "COc1cc(CN2CCN(c3ccccc3F)CC2)c2cc3[n+](cc2c1O)CCc1cc2c(cc1-3)OCO2", "cell line": "Ca-Ski and MDCK", "assay": "SRB", "conditions": "48 h", "scale": "reference: CC50 MDCK over IC50 Ca-Ski", "quantity": "therapeutic index", "result": 27.3}
{"Structure (SMILES)": "COc1cc(CNC(=O)C[C@H](C)CCC=C(C)C)ccc1OCc1cn(-c2ccc(C#N)cc2)nn1", "cell line": "NCI-H23", "assay": "SRB", "conditions": "10 µM, 48 h", "quantity": "growth percent", "result": "64.5%"}
{"Structure (SMILES)": "CC1[C@H](O)CC(=C/C=C2\\CCC[C@]3(C)[C@@H]([C@H](C)CCCCO)CC[C@@H]23)C[C@H]1O (some centres unmarked)", "cell line": "rat osteosarcoma cells", "assay": "reporter gene, luciferase, measured: CYP24A1 (24-hydroxylase) promoter", "scale": "reference: compound over 1α,25-dihydroxyvitamin D3", "quantity": "EC50 ratio", "result": 30}
{"Structure (SMILES)": "O=Cc1c(O)ccc2ccccc12", "cell line": "HUVEC", "assay": "RNA sequencing, measured: TNFSF15", "conditions": "75 µM, 24 h", "scale": "reference: DMSO", "quantity": "log2 fold change", "result": -3.33}
{"Structure (SMILES)": "COC(=O)C1NC(c2ccc[n+](C)c2)C23c4c5c6c7c8c9c(c%10c%11c2c2c4c4c%12c5c5c6c6c8c8c%13c9c9c%10c%10c%11c%11c2c2c4c4c%12c%12c5c5c6c8c6c8c%13c9c9c%10c%10c%11c2c2c4c4c%12c5c6c5c8c9c%10c2c45)C713 (centres unmarked)", "cell line": "BCBL1", "assay": "cell growth or viability", "conditions": "24 h", "quantity": "CC50", "result": "15.8 µM"}
{"Structure (SMILES)": "COc1cc(CNC(=O)C[C@H](C)CCC=C(C)C)ccc1OCc1cn(-c2ccc(Cl)cc2Cl)nn1", "cell line": "KM12", "assay": "SRB", "conditions": "10 µM, 48 h", "quantity": "growth percent", "result": "93.1%"}
{"Structure (SMILES)": "CCOc1ccccc1OCCN[C@H](C)Cc1ccc(OC)c(S(N)(=O)=O)c1", "cell line": "hiPSC cardiac tissues 3D", "assay": "active force", "conditions": "15 min per concentration, paced at 1 Hz serum-free", "quantity": "minimum effective concentration", "result": "3 µM"}
{"Structure (SMILES)": "COc1cc(CNC(=O)C[C@H](C)CCC=C(C)C)ccc1OCc1cn(-c2ccccc2[N+](=O)[O-])nn1", "cell line": "KM12", "assay": "SRB", "conditions": "10 µM, 48 h", "quantity": "growth percent", "result": "63.9%"}
{"Structure (SMILES)": "Cc1c(C)n(-c2c(C(C)C)cccc2C(C)C)c(=[Se])n1-c1c(C(C)C)cccc1C(C)C.[Cl][Ag]", "cell line": "A2780 ADR", "assay": "MTT", "scale": "reference: A2780 ADR over A2780", "quantity": "resistance factor", "result": 0.6}
{"note": "A few entries again:"}
{"Structure (SMILES)": "COc1ccc(C2=Nn3c(NN=C4C(=O)N(Cc5ccccc5)c5ccc(Cl)cc54)nnc3SC2)cc1", "cell line": "UACC-257", "assay": "cell growth or viability, SRB", "conditions": "10 µM", "quantity": "inhibition", "result": "13%"}
{"Structure (SMILES)": "O=C(/C=C/c1ccc2ccccc2c1)NO", "cell line": "SK-N-BE(2)-C", "assay": "flow cytometry", "conditions": "5.0 µM, unit not given", "scale": "reference: control", "quantity": "LysoTracker signal", "result": "1.7 ± 0.04"}
